Measured values pooled from the literature.
Parts stem from different laboratories: compare values within a part only. pIC50: −log10 of the molar value.

Block 1 — method: protein-binding microarray; molecule type: double-stranded DNA, one strand shown; matrix: in vitro; concentration: 2200 nM top; notes: 60-bp whole probe; added: salmon DNA 0.4 mg/ml; baseline: random background probes; direction: higher = stronger binding; endpoint: fitted relative affinity; shared flanks, not repeated: GCCTAGCAC … GTCTTGATTCGCTTGACGCTGCTG
Target: Interferon regulatory factor 7, full length, phosphomimetic (IRF7, Homo sapiens, UniProt Q92985, residues 1-503, S471D/S472D/S475D/S476D/S477D/S483D/S484D/S487D)
Target sequence (chain): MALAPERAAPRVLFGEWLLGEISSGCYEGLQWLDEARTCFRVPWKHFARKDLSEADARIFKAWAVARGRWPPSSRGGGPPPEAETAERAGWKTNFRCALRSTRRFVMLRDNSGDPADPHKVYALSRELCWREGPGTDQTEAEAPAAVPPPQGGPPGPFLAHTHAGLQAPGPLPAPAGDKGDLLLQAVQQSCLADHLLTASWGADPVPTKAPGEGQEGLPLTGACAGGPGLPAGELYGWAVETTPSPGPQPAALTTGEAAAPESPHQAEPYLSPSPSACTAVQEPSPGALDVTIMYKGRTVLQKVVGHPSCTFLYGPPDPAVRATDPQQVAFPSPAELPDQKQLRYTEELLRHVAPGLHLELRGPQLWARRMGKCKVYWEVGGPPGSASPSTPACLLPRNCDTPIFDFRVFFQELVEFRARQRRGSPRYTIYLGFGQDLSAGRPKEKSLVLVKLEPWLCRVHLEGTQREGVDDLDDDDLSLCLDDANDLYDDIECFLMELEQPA
Oligonucleotide = TAAGGTTTCCTTTCCCTTTAGTGCTAG; value = 4.97 z-score
Oligonucleotide = GACGATAACGGGACTGGAGACGTGCTA; value = -0.563 z-score
Oligonucleotide = TTAGGTATCGGAGTGGGTTAGTGCTAG; value = -0.225 z-score
Oligonucleotide = TTAGATTTCCGACTGGATTAGTGCTAG; value = 0.389 z-score
Oligonucleotide = TTATGTATCCTTATCCTTTAGTGCTAG; value = 1.86 z-score
Oligonucleotide = TCACTCTGCTCTTTTCAAACTGTGCTA; value = 1.76 z-score
Oligonucleotide = TCAGAGTTCTGTTGCAAACTGTGCTAG; value = 0.0717 z-score
Oligonucleotide = GACGATTTCGGGACTGGATACGTGCTA; value = 1.28 z-score

Block 2 — method: protein-binding microarray; molecule type: double-stranded DNA, one strand shown; matrix: in vitro; concentration: 0.8 µM; notes: whole 60-bp probe, no competitor; direction: higher = stronger binding; endpoint: fluorescence intensity
Target: Centromere-binding protein 1, full length, N-terminal tag (CBF1, Saccharomyces cerevisiae, UniProt P17106, residues 1-351)
UniProt P17106, sequence (whole entry, looked up): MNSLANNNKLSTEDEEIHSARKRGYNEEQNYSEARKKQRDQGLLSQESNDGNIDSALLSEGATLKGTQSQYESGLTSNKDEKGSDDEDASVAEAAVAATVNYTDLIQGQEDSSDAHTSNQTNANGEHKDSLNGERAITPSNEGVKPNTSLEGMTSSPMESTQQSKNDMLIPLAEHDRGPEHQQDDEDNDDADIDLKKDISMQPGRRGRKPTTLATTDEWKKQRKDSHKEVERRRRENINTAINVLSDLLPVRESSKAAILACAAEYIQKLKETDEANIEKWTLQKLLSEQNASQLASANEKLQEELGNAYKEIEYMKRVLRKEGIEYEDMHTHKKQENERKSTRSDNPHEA
Oligonucleotide = GAAAGTTTTTCATTTCACGATATTTAGCTGCAGTAGGTCTTGATTCGCTTGACGCTGCTG; value = 621 a.u.
Oligonucleotide = CTATTGGAATGATATCACGTTCGAAGTCTCTGTTTCGTCTTGATTCGCTTGACGCTGCTG; value = 781 a.u.
Oligonucleotide = GAACCAACTGTTTGCATGGTGGTGTTGATTGCATAGGTCTTGATTCGCTTGACGCTGCTG; value = 494 a.u.
Oligonucleotide = GAATAATATTCAGTCCGGGTGATGCTGTCATCTTAGGTCTTGATTCGCTTGACGCTGCTG; value = 536 a.u.

Block 3 — cell line: HEK-293T/ACE2; concentration: 10 µM; time: 16 h; baseline: vehicle; endpoint: viability
SMILES = CCOC(=O)C1=C(COCCN)NC(C)=C(C(=O)OC)C1c1ccccc1Cl (stereo not shown); value = 97.6%
SMILES = Cc1c(OCC(F)(F)F)ccnc1C[S+]([O-])c1nc2ccccc2[nH]1 (stereo not shown); value = 98.7%
SMILES = Nc1ccn([C@@H]2CS[C@H](CO)O2)c(=O)n1; value = 99%
SMILES = N[C@@H](C(=O)N[C@@H]1C(=O)N2C(C(=O)O)=C(Cl)CS[C@H]12)c1ccccc1; value = 101%

Block 4 — method: universal PBM; molecule type: double-stranded DNA, one strand shown; matrix: in vitro; concentration: 600 nM; direction: higher = stronger binding; endpoint: E-score
Target: Sal-like protein 4, full length isoform A (SALL4, Homo sapiens, UniProt Q9UJQ4, residues 1-1053)
UniProt Q9UJQ4, sequence (whole entry, looked up): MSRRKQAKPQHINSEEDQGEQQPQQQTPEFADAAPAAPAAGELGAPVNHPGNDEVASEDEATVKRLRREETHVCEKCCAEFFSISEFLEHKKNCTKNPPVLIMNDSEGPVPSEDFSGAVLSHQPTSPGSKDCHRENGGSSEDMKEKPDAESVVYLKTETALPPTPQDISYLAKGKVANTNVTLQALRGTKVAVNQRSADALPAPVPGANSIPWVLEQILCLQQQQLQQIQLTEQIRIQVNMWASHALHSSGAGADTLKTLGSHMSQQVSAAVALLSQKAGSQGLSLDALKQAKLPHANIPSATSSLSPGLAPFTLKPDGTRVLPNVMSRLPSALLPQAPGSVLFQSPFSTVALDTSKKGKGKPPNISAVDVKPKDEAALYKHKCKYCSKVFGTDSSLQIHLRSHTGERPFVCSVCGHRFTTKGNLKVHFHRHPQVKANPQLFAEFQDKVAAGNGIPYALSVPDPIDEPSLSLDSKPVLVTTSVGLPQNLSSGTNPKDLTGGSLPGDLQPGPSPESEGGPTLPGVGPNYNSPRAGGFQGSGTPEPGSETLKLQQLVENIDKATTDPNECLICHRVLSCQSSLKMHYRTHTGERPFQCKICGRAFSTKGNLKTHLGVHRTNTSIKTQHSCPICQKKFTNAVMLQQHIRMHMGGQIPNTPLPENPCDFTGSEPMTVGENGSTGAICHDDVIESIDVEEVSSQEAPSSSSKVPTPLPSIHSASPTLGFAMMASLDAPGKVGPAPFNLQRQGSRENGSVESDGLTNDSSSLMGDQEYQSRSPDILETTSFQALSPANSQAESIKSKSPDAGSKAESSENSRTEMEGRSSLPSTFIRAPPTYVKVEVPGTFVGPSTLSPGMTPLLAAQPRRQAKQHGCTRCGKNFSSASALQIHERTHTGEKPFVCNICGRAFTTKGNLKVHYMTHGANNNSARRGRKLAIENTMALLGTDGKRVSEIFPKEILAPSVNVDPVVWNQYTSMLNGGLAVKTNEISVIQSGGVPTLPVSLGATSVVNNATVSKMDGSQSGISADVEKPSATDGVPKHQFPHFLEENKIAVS
Notes: 8-mer, flanks averaged, mean of replicates
Oligonucleotide = AGCTAGAC; value = -0.0737
Oligonucleotide = GCATGAGC; value = -0.0942
Oligonucleotide = CGCCAAAG; value = -0.211
Oligonucleotide = CTCGTCAG; value = -0.126
Oligonucleotide = CTCCAAAC; value = -0.0364
Oligonucleotide = AGACGAGC; value = -0.157
Oligonucleotide = CATAGTCC; value = 0.0555
Oligonucleotide = CGGTCTCA; value = -0.0437

Block 5 — action: inhibitor; concentration: 20 µM; endpoint: inhibition
Target: Replicase polyprotein 1ab, nsp13 helicase (rep, Severe acute respiratory syndrome coronavirus 2, UniProt P0DTD1)
Structure (SMILES) = Nc1nc2n[nH]nc2c(=O)[nH]1; value = 23.6%
Structure (SMILES) = C[C@H](Nc1cc(NS(=O)(=O)N2CCC2)nc(SCc2cccc(F)c2F)n1)[C@@H](O)CO; value = 2.01%
Structure (SMILES) = O=c1[nH]cnc2c1ncn2[C@H]1CC[C@@H](CO)O1; value = 2.34%
Structure (SMILES) = COC(=O)C[C@](O)(CCCC(C)(C)O)C(=O)O[C@@H]1C(OC)=C[C@]23CCCN2CCc2cc4c(cc2[C@H]13)OCO4; value = 3.64%
Structure (SMILES) = CC(C)(O)C(=O)Nc1ccc([N+](=O)[O-])c(C(F)(F)F)c1; value = 4.56%
Structure (SMILES) = C[C@@H]1C[C@H]2[C@@H]3CCC4=CC(=O)C=C[C@]4(C)[C@@]3(Cl)[C@@H](O)C[C@]2(C)[C@@]1(OC(=O)c1ccco1)C(=O)CCl; value = 0.17%
Structure (SMILES) = O=C(CCBr)N1CCN(C(=O)CCBr)CC1; value = -2.09%
Structure (SMILES) = CN(Cc1cc(Br)cc(Br)c1N)C1CCCCC1; value = 1.6%
Structure (SMILES) = CCCCC(CC)CCC(CC(C)C)OS(=O)(=O)O (stereo not shown); value = 82.2%
Structure (SMILES) = C[C@@H](O[C@H]1OCCN(Cc2n[nH]c(=O)[nH]2)[C@H]1c1ccc(F)cc1)c1cc(C(F)(F)F)cc(C(F)(F)F)c1; value = 1.21%
Structure (SMILES) = COc1ccc(-n2c(SCc3nc(-c4ccc(C)cc4)no3)nnc2-c2ccncc2)cc1; value = 3.64%
Structure (SMILES) = Cc1ccc(F)cc1C(=O)Nc1ccc(C(=O)N2Cc3cccn3Cc3ccccc32)c(Cl)c1; value = 13.4%
Structure (SMILES) = NC/C(=C/F)CCc1ccc(F)cc1; value = 0.27%
Structure (SMILES) = CCCCNNC(=O)c1ccc(Br)cc1; value = -0.9%
Structure (SMILES) = O=C(O)[C@H](Cc1ccccc1)NCc1ccc(Cl)cc1; value = 8.43%
Structure (SMILES) = c1ccc(N2CCN(CCCOc3ccc4c(c3)OCO4)CC2)cc1; value = 4.88%
Structure (SMILES) = Cc1cc2sc(NC(=O)Cc3ccccc3)nc2cc1Cl; value = -2.32%
Structure (SMILES) = Nc1cccc2c(=O)[nH][nH]c(=O)c12; value = -5.33%
Structure (SMILES) = CCOc1ccc(C(=O)OCCN(CC)CC)cc1; value = 3.81%
Structure (SMILES) = COc1cccc(Nc2ncnn3ccc(CN4CC[C@@H](N)[C@H](O)C4)c23)c1; value = 0.21%
Structure (SMILES) = CC(=O)[C@H]1CC[C@H]2[C@@H]3C[C@H](C)C4=CC(=O)CC[C@]4(C)[C@H]3[C@@H](O)C[C@]12C; value = 2.27%
Structure (SMILES) = O=Cc1cn(Cc2ccc(Cl)cc2)c2ccccc12; value = 1.96%
Structure (SMILES) = CCN(CCNC(=O)Nc1ccccc1Br)c1cccc(C)c1; value = 6.64%
Structure (SMILES) = COC(=O)CC[C@@H]1N=C(c2ccccn2)c2cc(Br)ccc2-n2c(C)cnc21; value = 6.31%
Structure (SMILES) = CC(C)C[C@H](NC(=O)[C@@H]1CCCN1)C(=O)NCC(N)=O; value = 6.09%

Block 6 — effect on: enzyme activity; action: inhibitor; endpoint: pIC50
Target: Replicase polyprotein 1ab, main protease (rep, Severe acute respiratory syndrome coronavirus 2, UniProt P0DTD1)
SMILES = Cc1ccc(C(=O)n2nc(-c3cccnc3)nc2N)cc1; value = 5.29
SMILES = COc1ccc([N+](=O)[O-])c(S(=O)(=O)c2ccc(Cl)cc2)n1; value = 5.30
SMILES = O=C(O)C(=O)CBr; value = 4.94

Some of these lines once more (block 5):
Structure (SMILES) = NC/C(=C/F)CCc1ccc(F)cc1; value = 0.27%
Structure (SMILES) = CCCCNNC(=O)c1ccc(Br)cc1; value = -0.9%
Structure (SMILES) = O=C(O)[C@H](Cc1ccccc1)NCc1ccc(Cl)cc1; value = 8.43%
Structure (SMILES) = c1ccc(N2CCN(CCCOc3ccc4c(c3)OCO4)CC2)cc1; value = 4.88%
Structure (SMILES) = Cc1cc2sc(NC(=O)Cc3ccccc3)nc2cc1Cl; value = -2.32%
